Published values collected from several papers.
Lines come from different studies, so protocols differ. Values joined by “and” are separate records of one study, mostly repeats; a detail may differ. Numbers after ± are the reported error.

SMILES | assay | system | conditions | how to read | quantity | result
C=C(CN(C(=O)c1c(C(F)F)nn(C)c1F)C1CC1)c1ccc(Cl)cc1Cl | static acute toxicity test | zebrafish (Brachydanio rerio) | 0.578 mg a.i./L, 48 h | – | mortality | 0%
CC(C)c1nc(N(C)S(C)(=O)=O)nc(-c2ccc(F)cc2)c1/C=C/[C@@H](O)C[C@@H](O)CC(=O)O | – | healthy human subjects | oral, dose not given, study CL-0537 safety set | – | incidence of breast disorders | 3.6%
O=C(O)CCCOc1ccc(F)cc1-c1cc(-c2ccccc2C(F)(F)F)n(-c2ccccc2)n1 | – | female Crl:CD(SD) rats | intravenous, 25 µg/kg, 14 d | – | haemoglobin | 14.4 g/dL and 15.1 g/dL and 15 g/dL and 14.6 g/dL and 15.4 g/dL
C[C@@H]1OC(=O)NN=C1c1ccc(-c2ccc(F)cc2)c(C(F)(F)F)c1 | phase I trial, measured: Dyspnoea worst grade 2 | human patients | dose not given, all dose groups | – | patients with adverse event | 20%
Clc1cc2c(cc1Cl)Oc1c(ccc(Cl)c1Cl)O2 | ultrafiltration | cow milk whey | 2000 nM nominal in whole milk | – | dose fraction in permeate | 13.8%
COc1cccc(Oc2ccccc2NC(=O)CNC(=O)c2cccc3ccccc23)c1 | – | esterase-deficient SCID mice, male, blood | oral, 100 mg/kg/day, 14 days, toxicity study | baseline: white cells | monocytes | 5.1% and 6% and 13.5%
COc1ccc2nc3cc(Cl)ccc3c(Nc3cc(CN4CCCC4)c(O)c(CN4CCCC4)c3)c2n1 | – | mouse, blood | oral, 57 mg/kg, tolerability, mean | – | platelet distribution width | 15.5%
Cn1cncc1-c1c(F)cncc1NC(=O)c1c(N)nn2cc(F)cnc12 | – | human patients | oral, 270 mg once daily, 21 days | – | dose-limiting toxicity platelet decrease | 25%
O=C(Nc1ccccc1)C1CCN(C(=O)Oc2cccnc2)CC1 | adverse event reporting | healthy women | oral, 20 mg, 7 days | – | subjects with disturbance in attention | 7.1%
COc1cc(C(=O)NC2CCN(C)CC2)c(F)cc1Nc1ncc(C(F)(F)F)c(Oc2cccc3c2C(=O)N(C)C3)n1 | – | human patients, plasma | oral, 10 mg single dose, geometric mean | – | mean residence time | 24 h
CC(C)C[C@H](NC(=O)[C@H](CCCCN)NC(=O)OCC1c2ccccc2-c2ccccc21)C(=O)N[C@H](C(=O)N[C@@H](Cc1ccccc1)C(=O)N[C@@H](Cc1ccccc1)C(=O)N[C@@H](CCCCN)C(=O)NCC(=O)N[C@@H](Cc1ccccc1)C(=O)N[C@@H](C)C(=O)N[C@@H](Cc1c[nH]c2ccccc12)C(=O)N[C@@H](CC(N)=O)C(=O)N[C@H](C(=O)N[C@H]1CSSC[C@@H](C(=O)N[C@@H](Cc2c[nH]cn2)C(=O)N[C@@H](CCCNC(=N)N)C(=O)N[C@@H](CCCNC(=N)N)C(=O)N[C@@H](C)C(=O)N[C@@H](CC(N)=O)C(N)=O)NC(=O)[C@H](C(C)C)NC(=O)[C@H](CCCNC(=N)N)NC(=O)[C@H](C(C)C)NC(=O)CNC(=O)[C@H](CC(N)=O)NC(=O)[C@H](CCCNC(=N)N)NC(=O)[C@H](Cc2ccc(O)cc2)NC(=O)[C@H](C(C)C)NC1=O)C(C)C)C(C)C | circular dichroism, measured: α-Helix | PBS | 80 µM, pH 7.4, added: LPS 1 µM | – | secondary structure content | 5.99%
CN(C(=O)n1cnc(-c2ccc[n+]([O-])c2)c1)C1CCCCC1 | – | Wistar rat, pons | oral, 10 mg/kg/day, 48 h, repeated 5 days | – | concentration | 14.2 ± 1.4 ng/g
CC(C)C[C@H](NC(=O)[C@H](C)NC(=O)[C@@H](NC(=O)[C@H](CCCNC(=N)N)NC(=O)[C@H](CC(C)C)NC(=O)[C@H](Cc1c[nH]c2ccccc12)NC(=O)[C@@H]1CCCN1C(=O)[C@@H](N)CCCCN)C(C)C)C(=O)N[C@@H](CS)C(=O)N1CCC[C@H]1C(=O)NCC(=O)O | – | sheep red blood cells | 128 µM, 1 h, 37 °C | – | hemolysis | 0.86% and 0.45% and 1.1%
CN[C@@H](C)C(=O)N[C@H]1CN(S(=O)(=O)c2cccc(S(=O)(=O)N3CC[C@H]4CC[C@@H](C(=O)NC(c5ccccc5)c5ccccc5)N4C(=O)[C@@H](NC(=O)[C@H](C)NC)C3)c2)CC[C@H]2CC[C@@H](C(=O)NC(c3ccccc3)c3ccccc3)N2C1=O | – | patients advanced solid tumours | dose not given, all grades all doses | – | treatment-related AST elevation | 7.1%
C=CC(=O)N1CC[C@H](n2nc(C#Cc3cc(OC)cc(OC)c3)c3c(N)ncnc32)C1 | – | human patients, all | oral, dose not given, QD regimen, adverse drug reaction | – | blood creatinine increased, any grade | 11.6%
COc1cc2c(Oc3ccc4[nH]c(C)cc4c3F)ccnc2cc1OCC1(N)CC1 | – | paediatric recurrent refractory sarcoma | 10 mg | – | abdominal pain incidence | 50%
N=C(N)NCCNC(=O)C1(Nc2ccccc2)CCN(Cc2ccccc2)CC1 | – | female Sprague-Dawley rats | intravenous, 2.5 mg/kg | – | elimination rate constant | 0.000222 ± 2.78e-05 s⁻¹
Cn1c(-c2ccc(C(N)=O)cc2F)nnc1C(C)(C)Oc1c(F)cc(Cl)cc1F | – | human | oral, dose not given, single ascending dose all doses | – | subjects with musculoskeletal TEAE | 5.6%
O=[N+]([O-])NC1=NCCN1Cc1ccc(Cl)nc1 | ultrafiltration | cow milk whey | 200 nM nominal in whole milk | – | dose fraction in permeate | 62.1%
C[C@]1(CO)Cc2ncn(-c3ccc(C#N)c(Cl)c3)c2C(=O)O1 | – | human | concentration not given, European multiple ascending dose | – | drug-related AE incidence | 11.7%
COc1ccc(-c2c(-c3ccc(C#N)c(F)c3)nc(N3CCC(N)CC3)n(C)c2=O)cc1F | measured: Vomiting | relapsed/refractory marginal zone lymphoma patients | oral, 60 mg, grade 3 to 4, dose expansion | – | treatment-related adverse event incidence | 0%
Cn1cc(-c2nc(N[C@@H]3CCCC[C@@H]3N)c(F)c3c2C(=O)NC3)cn1 | measured: Retinal haemorrhage | patients with relapsed or refractory AML | oral, 80 mg twice daily | – | hemorrhagic adverse events | 33%
CO[C@H]1C[C@@H]2CC[C@@H](C)[C@@](O)(O2)C(=O)C(=O)N2CCCC[C@H]2C(=O)O[C@H]([C@H](C)C[C@@H]2CC[C@@H](OC(=O)NCCOCCOCCOCCOCCOCCOCCOCCOCCC(=O)N3CCc4cc(Cn5nc(-c6ccc7oc(N)nc7c6)c6c(N)ncnc65)ccc4C3)[C@H](OC)C2)C[C@@H](O)[C@H](C)/C=C(\C)[C@@H](O)[C@@H](OC)C(=O)[C@H](C)C[C@H](C)/C=C/C=C/C=C/1C | – | patients with advanced solid tumours | intravenous, dose not given, grade ≥3 | – | Neutropenia AE leading to dose reduction | 1.8%
CCc1ccc(CC/C=C/c2ccc3c(c2)C(=O)CC3)cc1 | – | Sprague-Dawley rat, male, blood | oral, 120 mg/kg/day, 14 days | – | APTT | 14.4 s
